Measured values collected from several papers.
Compare with care: the assays were run in different laboratories. Numbers after ± are the reported error.

O=C(Nc1ccccc1)C1CCN(C(=O)Oc2cccnc2)CC1  adverse event incidence (item: Malaise; healthy female human; concentration not given, all doses pooled): 0%
CN1CC[C@@H](c2c(O)cc(O)c3c(=O)cc(-c4ccc(C(F)(F)F)cc4Cl)oc23)[C@@H]1CO  patients with adverse event (item: Sepsis; relapsed or refractory haematological malignancies; oral, dose not given, all arms): 12.5%
[O-][S+]1CCc2nc(N3CCC(c4ncc(Cl)cn4)CC3)nc(NC3(CO)CCC3)c21 (centres unmarked)  Constipation adverse events (idiopathic pulmonary fibrosis patients; 18 mg twice daily): 10%
CC(=O)c1c(C)c2cnc(Nc3ccc(C4CCN(CCS(C)(=O)=O)CC4)cn3)nc2n(C2CCCC2)c1=O  AUC(0-t) (human, dose-escalation trial, plasma; oral, 50 mg twice daily, day 21, multiple doses): 0.856 µg·h/mL
O=[N+]([O-])c1ccc2c(c1)S(=O)(=O)C=C2  spleen weight (male C57BL/6 mice; i.p., 20 mg/kg, day 8, repeated dosing): 0.125 g
CC(C)[C@@H]1NC(=O)CNC(=O)[C@H](CC(N)=O)NC(=O)[C@H](CCCNC(=N)N)NC(=O)[C@H](Cc2ccc(O)cc2)NC(=O)[C@H](C(C)C)NC(=O)[C@@H](NC(=O)[C@@H](NC(=O)[C@H](CC(N)=O)NC(=O)[C@H](Cc2c[nH]c3ccccc23)NC(=O)[C@H](C)NC(=O)[C@H](Cc2ccccc2)NC(=O)CN)C(C)C)CSSC[C@@H](C(=O)N[C@@H](Cc2cnc[nH]2)C(=O)N[C@@H](CCCNC(=N)N)C(=O)N[C@@H](CCCNC(=N)N)C(=O)N[C@@H](C)C(=O)N[C@@H](CC(N)=O)C(N)=O)NC(=O)[C@H](C(C)C)NC(=O)[C@H](CCCNC(=N)N)NC1=O  ALT (ICR mice, serum; intraperitoneal, 10 mg/kg, day 5): 50.8 ± 1.9 IU/L
COc1ccc2nc3cc(Cl)ccc3c(Nc3cc(CN4CCCC4)c(O)c(CN4CCCC4)c3)c2n1  mean corpuscular volume (mouse, blood; intraperitoneal, 57 mg/kg): 45.3 fL
O=C(Nc1ccccc1)C1CCN(C(=O)Oc2cccnc2)CC1  subjects with respiratory AEs (healthy female subjects; oral, 20 mg, respiratory, thoracic, mediastinal disorders): 0%
Cc1cccc(Cn2nc(C3CC3)c3c(NC(=O)c4cnc5cc(OCCN6CCN(C)CC6)ccn45)cccc32)n1  adverse events incidence (item: Nausea; human pancreatic ductal adenocarcinoma; oral, dose not given, all-causality): 48.1%
Cn1cncc1-c1c(F)cncc1NC(=O)c1c(N)nn2cc(F)cnc12  grade ≥3 platelet decrease incidence (human patients; oral, 80 mg once daily): 0%
C#C[C@]1(CO)O[C@@H](n2cnc3c(N)nc(F)nc32)C[C@@H]1O  Cmax at NOAEL (monkey, plasma; oral, 20 mg/kg/dose, 29 days): 8.4 µM
CC[C@H](C)[C@H](NC(=O)[C@H](Cc1ccccc1)NC(=O)[C@H](CCC(=O)O)NC(=O)[C@H](CCCNC(=N)N)NC(=O)[C@H](C)NC(=O)[C@H](C)NC(=O)[C@H](CCC(N)=O)NC(=O)[C@H](CCC(=O)O)NC(=O)[C@H](CCC(=O)O)NC(=O)[C@H](CC(C)C)NC(=O)[C@H](Cc1ccc(O)cc1)NC(=O)[C@H](CO)NC(=O)[C@H](CO)NC(=O)[C@@H](NC(=O)[C@H](CC(=O)O)NC(=O)[C@H](CO)NC(=O)[C@@H](NC(=O)[C@H](Cc1ccccc1)NC(=O)[C@@H](NC(=O)CNC(=O)[C@H](CCC(=O)O)NC(=O)[C@H](C)NC(=O)CCc1cnc[nH]1)[C@@H](C)O)[C@@H](C)O)C(C)C)C(=O)N[C@@H](C)C(=O)N[C@@H](Cc1c[nH]c2ccccc12)C(=O)N[C@@H](CC(C)C)C(=O)N[C@H](C(=O)N[C@@H](CCCNC(=N)N)C(=O)NCC(=O)N[C@@H](CCCNC(=N)N)C(=O)N[C@@H](CCCCNC(=O)COCCOCCNC(=O)COCCOCCNC(=O)CC[C@H](NC(=O)CCCCCCCCCCCCCCCCC(=O)O)C(=O)O)C(=O)NCC(=O)NCC(=O)N[C@@H](CO)C(=O)N[C@@H](CCCCNC(=O)[C@H](CCCCNc1c(NCCCCCN(O)C(=O)CCC(=O)NCCCCCN(O)C(=O)CCC(=O)NCCCCCN(O)C(C)=O)c(=O)c1=O)Nc1c(NCCCCCN(O)C(=O)CCC(=O)NCCCCCN(O)C(=O)CCC(=O)NCCCCCN(O)C(C)=O)c(=O)c1=O)C(=O)O)C(C)C [zirconium-89 labelled]  tissue uptake (ex vivo gamma counting; male Sprague-Dawley rats, kidney; intravenous, 1 nmol, 24 h): 7.57 %ID/g
O=c1ccc2ncc(=O)n3c2n1C[C@H]3CN1CCC(NCc2cc3c(cn2)OCCC3)CC1  AUC(0-48) (healthy human volunteers, urine; oral, 1500 mg, arithmetic mean, alone): 4170 µg·h/mL
C=CC(=O)N1CC[C@H](n2nc(C#Cc3cc(OC)cc(OC)c3)c3c(N)ncnc32)C1  AST increased, any grade (human patients; oral, dose not given, QD regimen, adverse drug reaction, with: lanthanum carbonate hydrate): 20.8%
Cc1ccc(F)c2cc(C(=O)N[C@@H]3CCC[C@H](N4CC[C@H](N(C)S(C)(=O)=O)C4)C3)[nH]c12  plasma concentration (CD1 mouse, plasma; oral, 100 mg/kg, 0.5 h): 3170 ng/mL
CC(C)(C)c1cc(-n2nc3ccccc3n2)c(O)c(C(C)(C)C)c1  mean daily dermal uptake (exposure assessment; human, age 6-11 years; sunscreen): 1.6 ng/kg body weight/day
CCc1ccc(CC/C=C/c2ccc3c(c2)C(=O)CC3)cc1  Albumin (Sprague-Dawley rat, female; oral, 30 mg/kg/day, 14 days): 36.3 g/L
COc1ncccc1-c1cnn2ccc(N3CCN(C(=O)OC(C)C)CC3)nc12  drug concentration (mouse nerve ligation model, brain; oral, 3 mg/kg, 30 min after last dose, repeat dosing day 1): 2.4 µM
NC(=O)[C@@H]1CC(F)(F)CN1C(=O)c1ccc(N2CC(F)(F)C2)c(OCC2CC2)n1  oral bioavailability (C57BL/6 mice; oral, dose not given): 120%
Cc1cn([C@H]2O[C@@H](CO[P@@](=O)(N[C@@H](C)C(=O)OC(C)C)Oc3ccccc3)[C@H](O)[C@H]2F)c(=O)[nH]c1=O  patients with TEAE (item: common cold; human; 50 mg): 0%
C[C@]1(CO)Cc2ncn(-c3ccc(C#N)c(Cl)c3)c2C(=O)O1  half-life (human, plasma; 5 mg single dose, geometric mean): 5.1 h
CCC[C@@](N)(CO)CCc1ccc(OCCCCCC(C)C)cc1  oral bioavailability (C57BL/6 mice; oral, 10 mg/kg): 16%
CCC[C@H]1CC[C@H](c2ccc(-c3ccc(F)cc3)cc2)CC1  placental accumulation (rat, placenta; 10 ng/mL in perfusate, low dose, mixture of 21 LCMs): 1.12 ± 3.37 ng/g
COc1ccnc(C(=O)N[C@H]2COC(=O)[C@H](Cc3ccccc3)[C@@H](OC(=O)C(C)C)[C@H](C)OC2=O)c1OCOC(=O)C(C)C  share of total radioactive residue (cabbage; concentration not given, foliar application): ≤ 96 % TRR
COc1cc(C(=O)NC2CCN(C)CC2)c(F)cc1Nc1ncc(C(F)(F)F)c(Oc2cccc3c2C(=O)N(C)C3)n1  fraction excreted in urine (0-24 h) (human patients, urine; oral, 200 mg single dose, geometric mean; relative to: dose): 6.01%
O=C1Nc2cc3[nH]nc(-c4ccncc4)c3cc2CN1Cc1ccccc1  patients with acneiform dermatitis (CTCAE v4.03; advanced solid tumour patients; intravenous, 0.9 mg/kg, schedules 1/2): 0%
N[C@@H]1c2ccccc2OC12CCN(c1cnc3c(N4CCCc5ncccc54)n[nH]c3n1)CC2  TEAE causing dose reduction (advanced solid tumour patients; oral, 40 mg once daily): 0%
CC(C)C[C@H](NC(=O)[C@H](CCCCN)NC(=O)OCC1c2ccccc2-c2ccccc21)C(=O)N[C@H](C(=O)N[C@@H](Cc1ccccc1)C(=O)N[C@@H](Cc1ccccc1)C(=O)N[C@@H](CCCCN)C(=O)NCC(=O)N[C@@H](Cc1ccccc1)C(=O)N[C@@H](C)C(=O)N[C@@H](Cc1c[nH]c2ccccc12)C(=O)N[C@@H](CC(N)=O)C(=O)N[C@H](C(=O)N[C@H]1CSSC[C@@H](C(=O)N[C@@H](Cc2c[nH]cn2)C(=O)N[C@@H](CCCNC(=N)N)C(=O)N[C@@H](CCCNC(=N)N)C(=O)N[C@@H](C)C(=O)N[C@@H](CC(N)=O)C(N)=O)NC(=O)[C@H](C(C)C)NC(=O)[C@H](CCCNC(=N)N)NC(=O)[C@H](C(C)C)NC(=O)CNC(=O)[C@H](CC(N)=O)NC(=O)[C@H](CCCNC(=N)N)NC(=O)[C@H](Cc2ccc(O)cc2)NC(=O)[C@H](C(C)C)NC1=O)C(C)C)C(C)C  ALT (ICR mice, serum; intraperitoneal, 5 mg/kg, day 5): 48.8 ± 3.05 IU/L
COc1ccc(-c2c(-c3ccc(C#N)c(F)c3)nc(N3CCC(N)CC3)n(C)c2=O)cc1F  serious TEAE incidence (item: ≥1 any-grade serious TEAE; human patients; oral, dose not given, dose escalation): 46%
CC(C)C[C@H](NC(=O)[C@H](CCC1CCCCC1)NC(=O)[C@@H]1CCCN1C(=O)c1ccc(F)cc1)C(=O)NC(C)(C)C(=O)N[C@@H](CC(C)C)C(=O)N[C@@H](CC(C)C)C(=O)NC(C)(C)C(=O)NC(C)(C)C(=O)NCCC(=O)NC1(CN(C)C)CCC1  alpha-helix content (circular dichroism; phosphate buffer; pH 7.4, 20 °C): 75.7%
C[C@@H]1OC(=O)NN=C1c1ccc(-c2ccc(F)cc2)c(C(F)(F)F)c1  patients with adverse event (phase I trial, item: Diarrhoea worst grade 1; human patients; 10 mg loading then 0.5 mg daily): 100%
CN[C@@H](C)C(=O)N[C@H]1CN(S(=O)(=O)c2cccc(S(=O)(=O)N3CC[C@H]4CC[C@@H](C(=O)NC(c5ccccc5)c5ccccc5)N4C(=O)[C@@H](NC(=O)[C@H](C)NC)C3)c2)CC[C@H]2CC[C@@H](C(=O)NC(c3ccccc3)c3ccccc3)N2C1=O  treatment-related pruritus incidence (patients with advanced solid tumours; 0.3 mg, phase I monotherapy): 0%
COc1cc2c(Oc3ccc4[nH]c(C)cc4c3F)ccnc2cc1OCC1(N)CC1  grade 3 Hematuria (paediatric recurrent refractory sarcoma; 8 mg): 0%
N=C(CC(O)c1cc2c(F)cc(F)cc2c2cc(C(F)(F)F)ccc12)Nc1ccc(F)c(F)c1 (centres unmarked)  blood-to-plasma ratio (human; 30 min): 1.04 ± 0.09
C[C@]12C=CC(=O)C=C1C(CSC[C@H](N)C(=O)O)C[C@@H]1[C@@H]2CC[C@]2(C)C(=O)CC[C@@H]12 (some centres unmarked)  share of modified total exemestane metabolites (postmenopausal women, serum; UGT2B17 and GSTA1 genotypes): 22%
CO[C@H]1C[C@@H]2CC[C@@H](C)[C@@](O)(O2)C(=O)C(=O)N2CCCC[C@H]2C(=O)O[C@H]([C@H](C)C[C@@H]2CC[C@@H](OC(=O)NCCOCCOCCOCCOCCOCCOCCOCCOCCC(=O)N3CCc4cc(Cn5nc(-c6ccc7oc(N)nc7c6)c6c(N)ncnc65)ccc4C3)[C@H](OC)C2)C[C@@H](O)[C@H](C)/C=C(\C)[C@@H](O)[C@@H](OC)C(=O)[C@H](C)C[C@H](C)/C=C/C=C/C=C/1C  incidence of Dysgeusia TEAE (patients with advanced solid tumours; intravenous, dose not given, grade ≥3): 0%
Clc1ccc(Cl)c(-c2cc(Cl)ccc2Cl)c1  concentration (Sprague Dawley rat female, serum; intraperitoneal, 1 mg/kg, 3 weeks): 1 ng/g
O=S(=O)(Nc1ccccc1)c1ccc(NC(=S)Nc2ccccc2)cc1  mean corpuscular haemoglobin (mouse, male, blood; oral, 20 mg/kg daily, 14 days): 15.6 pg

Repeated from above:
Cc1cccc(Cn2nc(C3CC3)c3c(NC(=O)c4cnc5cc(OCCN6CCN(C)CC6)ccn45)cccc32)n1  adverse events incidence (item: Nausea; human pancreatic ductal adenocarcinoma; oral, dose not given, all-causality): 48.1%
Cn1cncc1-c1c(F)cncc1NC(=O)c1c(N)nn2cc(F)cnc12  grade ≥3 platelet decrease incidence (human patients; oral, 80 mg once daily): 0%
C#C[C@]1(CO)O[C@@H](n2cnc3c(N)nc(F)nc32)C[C@@H]1O  Cmax at NOAEL (monkey, plasma; oral, 20 mg/kg/dose, 29 days): 8.4 µM
CC[C@H](C)[C@H](NC(=O)[C@H](Cc1ccccc1)NC(=O)[C@H](CCC(=O)O)NC(=O)[C@H](CCCNC(=N)N)NC(=O)[C@H](C)NC(=O)[C@H](C)NC(=O)[C@H](CCC(N)=O)NC(=O)[C@H](CCC(=O)O)NC(=O)[C@H](CCC(=O)O)NC(=O)[C@H](CC(C)C)NC(=O)[C@H](Cc1ccc(O)cc1)NC(=O)[C@H](CO)NC(=O)[C@H](CO)NC(=O)[C@@H](NC(=O)[C@H](CC(=O)O)NC(=O)[C@H](CO)NC(=O)[C@@H](NC(=O)[C@H](Cc1ccccc1)NC(=O)[C@@H](NC(=O)CNC(=O)[C@H](CCC(=O)O)NC(=O)[C@H](C)NC(=O)CCc1cnc[nH]1)[C@@H](C)O)[C@@H](C)O)C(C)C)C(=O)N[C@@H](C)C(=O)N[C@@H](Cc1c[nH]c2ccccc12)C(=O)N[C@@H](CC(C)C)C(=O)N[C@H](C(=O)N[C@@H](CCCNC(=N)N)C(=O)NCC(=O)N[C@@H](CCCNC(=N)N)C(=O)N[C@@H](CCCCNC(=O)COCCOCCNC(=O)COCCOCCNC(=O)CC[C@H](NC(=O)CCCCCCCCCCCCCCCCC(=O)O)C(=O)O)C(=O)NCC(=O)NCC(=O)N[C@@H](CO)C(=O)N[C@@H](CCCCNC(=O)[C@H](CCCCNc1c(NCCCCCN(O)C(=O)CCC(=O)NCCCCCN(O)C(=O)CCC(=O)NCCCCCN(O)C(C)=O)c(=O)c1=O)Nc1c(NCCCCCN(O)C(=O)CCC(=O)NCCCCCN(O)C(=O)CCC(=O)NCCCCCN(O)C(C)=O)c(=O)c1=O)C(=O)O)C(C)C [zirconium-89 labelled]  tissue uptake (ex vivo gamma counting; male Sprague-Dawley rats, kidney; intravenous, 1 nmol, 24 h): 7.57 %ID/g
O=c1ccc2ncc(=O)n3c2n1C[C@H]3CN1CCC(NCc2cc3c(cn2)OCCC3)CC1  AUC(0-48) (healthy human volunteers, urine; oral, 1500 mg, arithmetic mean, alone): 4170 µg·h/mL
C=CC(=O)N1CC[C@H](n2nc(C#Cc3cc(OC)cc(OC)c3)c3c(N)ncnc32)C1  AST increased, any grade (human patients; oral, dose not given, QD regimen, adverse drug reaction, with: lanthanum carbonate hydrate): 20.8%
